Assay results from different studies.
Compare with care: the assays were run in different laboratories. Numbers after ± are the reported error.
Fibroin-modulator-binding protein-1: Fibroin-modulator-binding protein-1 99-193 (Bombyx mori, UniProt Q5FBS0)

Substance	target or system	assay	test system	conditions	how to read	measurement	result
human retinal dehydrogenase 1	–	co-immunoprecipitation	human RBC membrane	DSSO crosslinker, unit not given, added: Band 3 peptide 1-56 bait	relative to: negative control	co-IP enrichment	15
GLFQWIYRA	Jurkat T cells expressing 1G4 TCR	NFAT-eGFP reporter, fluorescence microscopy	peptide	concentration not given, HLA-A*02:01 NY-ESO system	–	reporter activation	0.0024%
GGGAGAACUUCGACCAGAAGCACUACGUGACCAUGAUUCCCCACCUGUGCUUCAGUCAGUUAUGUGCGCAUACAUGGAUCCUC (ssRNA; 2'-fluoro pyrimidines)	integrin alphaV/beta3 31-992/27-718 (Homo sapiens)	SPR	RNA	added: MnCl2 1 mM	higher = more binding	relative binding	85.4 RU
MTVCNASQRQAHAQATAVSL	H1650 lung adenocarcinoma/BAC	phage binding output/input	peptide	–	relative to: control phage	selectivity ratio	1.4 ± 0.35
ALYDVRTIL	HLA class I histocompatibility antigen, A alpha chain, allele A*02:01 (Homo sapiens, UniProt P04439)	peptide-MHC stability, brefeldin A chase	peptide, T2 cells	–	–	complex half-life	6.64 h
CGAACGAACGAA (dsDNA)	Fibroin-modulator-binding protein-1	ITC	double-stranded DNA, one strand shown	–	–	Kd	9.03 ± 0.968 µM
TQLMPFGSL	HLA class I histocompatibility antigen, A alpha chain, allele A*24:02 (Homo sapiens, UniProt P04439)	conformational ELISA	peptide	concentration not given	relative to: positive control peptide, direction not given	binding score	2.4%
SEKHFRETEV	human SCRIB PDZ3-4 tandem (MBP fusion)	automated holdup	peptide, crude extract	concentration not given, uncorrected, unit not given	relative to: biotin control resin, higher = stronger binding	binding intensity	0.984
colistin	Enterobacter cloacae	broth microdilution	clinical isolate RKI-No_766/15	–	–	MIC	≤ 0.5 mg/L
GSGAGSETKM	human SCRIB PDZ3-4 tandem (MBP fusion)	automated holdup	peptide, crude extract	concentration not given, uncorrected, unit not given	relative to: biotin control resin, higher = stronger binding	binding intensity	0.0724
ALLQWVAQV	Jurkat T cells expressing 1G4 TCR	NFAT-eGFP reporter, fluorescence microscopy	peptide	concentration not given, HLA-A*02:01 NY-ESO system	–	reporter activation	9.95%
epoetin alfa	UT7/EPO	microarray, item: OSM (probe 214637_at)	–	5 U/mL, 90 min, added: SCF 10 nM	relative to: vehicle	mRNA level	54.5 fold
PMESGICTIV	human SCRIB PDZ3-4 tandem (MBP fusion)	automated holdup	peptide, purified PDZ protein	concentration not given, unit not given	relative to: biotin control resin, higher = stronger binding	binding intensity	-0.0577
triosephosphate isomerase	–	co-immunoprecipitation	human RBC membrane	unit not given, added: Band 3 peptide 1-56 bait	relative to: negative control	co-IP enrichment	0.169
insulin aspart	–	ELISA after PEG precipitation, item: free insulin aspart	human, type 1 diabetes, serum	subcutaneous, dose not given, least squares mean	–	AUC(0-t)	0.72 nM·h
AATGAATGAATG (dsDNA)	Fibroin-modulator-binding protein-1	ITC	double-stranded DNA, one strand shown	–	–	Kd	1.31 ± 0.102 µM
GLAQWMARA	Jurkat T cells expressing 1G4 TCR	NFAT-eGFP reporter, fluorescence microscopy	peptide	concentration not given, HLA-A*02:01 NY-ESO system	–	reporter activation	0.00407%
Peginesatide	UT7/EPO	RT-qPCR, item: CISH	–	concentration not given, 90 min, normalized to HPRT1	relative to: vehicle	mRNA level	15.9 fold
PFGSLLDYV	HLA class I histocompatibility antigen, A alpha chain, allele A*01:01 (Homo sapiens, UniProt P04439)	conformational ELISA	peptide	concentration not given	relative to: positive control peptide, direction not given	binding score	0.1%
EKPIDSETKM	human MAGI1-3/6 PDZ construct (MBP fusion)	automated holdup	peptide, purified PDZ protein	concentration not given, unit not given	relative to: biotin control resin, higher = stronger binding	binding intensity	-0.205
CCT6A	–	co-immunoprecipitation	human plasma	unit not given, added: Band 3 peptide 1-56 bait	relative to: negative control	co-IP enrichment	0
TLLEWLTKV	Jurkat T cells expressing 1G4 TCR	NFAT-eGFP reporter, fluorescence microscopy	peptide	concentration not given, HLA-A*02:01 NY-ESO system	–	reporter activation	0.00882%
NRVDSKETEC	human MAGI1-3/6 PDZ construct (MBP fusion)	surface plasmon resonance	peptide	concentration not given	higher = stronger binding	normalised SPR binding response	0 normalised RU
human delta-aminolevulinic acid dehydratase	–	co-immunoprecipitation	human RBC cytosol	unit not given, added: Band 3 peptide 1-56 bait	relative to: negative control	co-IP enrichment	0
KDECVIATEV	human SCRIB PDZ3-4 tandem (MBP fusion)	automated holdup	peptide, crude extract	concentration not given, uncorrected, unit not given	relative to: biotin control resin, higher = stronger binding	binding intensity	0.288
YLGEWVAQL	Jurkat T cells expressing 1G4 TCR	NFAT-eGFP reporter, flow cytometry	peptide	concentration not given, HLA-A*02:01 NY-ESO system	–	reporter activation	0.22%

A few entries again:
Substance	target or system	assay	test system	conditions	how to read	measurement	result
SEKHFRETEV	human SCRIB PDZ3-4 tandem (MBP fusion)	automated holdup	peptide, crude extract	concentration not given, uncorrected, unit not given	relative to: biotin control resin, higher = stronger binding	binding intensity	0.984
ALLQWVAQV	Jurkat T cells expressing 1G4 TCR	NFAT-eGFP reporter, fluorescence microscopy	peptide	concentration not given, HLA-A*02:01 NY-ESO system	–	reporter activation	9.95%
YLGEWVAQL	Jurkat T cells expressing 1G4 TCR	NFAT-eGFP reporter, flow cytometry	peptide	concentration not given, HLA-A*02:01 NY-ESO system	–	reporter activation	0.22%
GGGAGAACUUCGACCAGAAGCACUACGUGACCAUGAUUCCCCACCUGUGCUUCAGUCAGUUAUGUGCGCAUACAUGGAUCCUC (ssRNA; 2'-fluoro pyrimidines)	integrin alphaV/beta3 31-992/27-718 (Homo sapiens)	SPR	RNA	added: MnCl2 1 mM	higher = more binding	relative binding	85.4 RU
